Measured values collected from several papers.
A part holds a random share of what one study measured.

Block 1
Target: RING finger protein unkempt homolog, zinc fingers 1-6, GST-SBP tag (UNK, Homo sapiens, UniProt Q9C0B0, residues 30-357)
Method: RNA Bind-n-Seq
Molecule type: RNA
Medium: in vitro
Concentration: not given
Setting: RNA with constant flanks, human-mouse chimeric sites, ends assumed
Relative to: input RNA pool
Direction: higher = stronger binding
All sequences stand within: GGGAGUUCUACAGUCCGACGAUC … CAACAGAGGAUUGAGCAUCA
Construct (chain): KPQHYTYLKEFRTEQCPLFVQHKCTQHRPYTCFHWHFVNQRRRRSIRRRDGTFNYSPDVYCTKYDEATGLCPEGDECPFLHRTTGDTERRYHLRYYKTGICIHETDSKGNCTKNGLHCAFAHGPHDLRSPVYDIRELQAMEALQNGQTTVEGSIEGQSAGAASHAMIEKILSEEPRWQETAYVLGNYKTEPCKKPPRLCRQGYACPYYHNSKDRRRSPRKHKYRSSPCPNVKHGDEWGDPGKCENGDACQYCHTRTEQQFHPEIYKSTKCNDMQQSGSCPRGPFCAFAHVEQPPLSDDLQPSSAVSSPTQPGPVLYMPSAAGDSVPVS
Sequence	bound/input enrichment
GAUCAUGAACCACCAUCCAGAAAUGAAAUGAGAUUACCCAGACGAGCCCAAAACCGCGCGCUACAGAAAAGUAAACUUAACCUUGCAGAGUUCCUUAAUGAAGAUACAAGUUAAGAGAGC	0.304 ratio
AAAGAGUGGAUAGAGUGUGCACACGGGAUCGGUGGGACCCGGGCGAAAAAGGAGUGCAAGAUAGAGUAUGAUGAUUUCGAAGAGUGCUUGCUUCGGCACAAAACGAUGAGGCGAAUGCAU	0.794 ratio
GGACAUCUGUCAAAUUGUUAUGUUCCUGUGAAACAAGUGAACACUCUGAUACACUUCAUCUGCUUGUACAUCUGUAUGAUAGAGAAACAGAAAUCUAUUAAUCCAAGCAAUGUGUCACUU	0.123 ratio
UCUGGCCACACUCGUGUAUAUGGUGUGUGCUUUGUGGACACUUCACUGGGCAAGUUUUUCAUCGGCCAGUUUUCGGAUGACCGCCACUGUUCCAGAUUUAGGACGCUAGUGGCUCACUAU	0.203 ratio
GCAAAGGAUGAUGAGGCGGCAGCUGUUGCCCUUUCCUCCCUGAUUCAUGCUUUGGAUGAGUUAAACAUGGUCGCCAUCGUCCGAUAUGCUUAUGACAAAAGAUCUAAUCCUCAAGUCGGU	0.24 ratio
UCUUAACUUAUUCAUUUAACUUAUUUUUAUAGCUAGAUAAAUAUUGUUAGUCUUAGUGAGUAGUUCACAUUUUUUGAGAAGCAUGCCCUCCCUGUCCAUUUGUCUUAUAACAUGACCCAG	16 ratio
AUCCAGUACUCGAAUCACAAAGAACUAAAGACAGAUAAUACAUUAAACCAACGUGCUCAAGUAGUUCUUCAAGCUGUGACAGCUGUCCAGACAGCAAAUACACCUCUUAGUGGCACCACA	0.394 ratio
AUAGAUGAAAUUGAUGUGGACCAGGAAGGAAUUGCUGAAAUGAUCCUGGAUGAAAAUGCUAUUGCUCAAGUUCCACGCCCUGGAACGUCUUUGAAGCUCCCUGGCACUAACCAAACAGGA	0.312 ratio
CCCACGCCUCCUCUCCCACAGGCCCAAGAUAUAACCCACCAGUGCCUUCUGUCUGCUUGUCAGCUCUGUCAAUCACGCCUGUCCUCUCACGCCCACACCAAGUGCCCAAAGUGGGGAGGG	0.658 ratio
UGACAAGGGCACUGCAGAGCCAUGCCUUUCUUGGACAUACAGAAAAAGUUCGGCCUUAGCCUGGACCGGCACUUUAUGUUCCUAAGCGCAGAACAGCCCUAUAAGAACGCCGCUCGGUGC	0.0673 ratio
UACUCAACUUUCUUGCCACGUUUUGAAUUCCAAGACAUUAUUCCUCCAGAUGACUUCCUAACGAGUGAUGAAGAGCAAGAUUUGGUUUUAUUUGGAACUAUGAGAGGUCAUGUGGUUGGA	0.147 ratio

Block 2
Target: RNA binding protein fox-1 homolog 2, RRM domain, GST-SBP tag (RBFOX2, Homo sapiens, UniProt O43251-10, residues 100-194)
Method: RNA Bind-n-Seq
Molecule type: RNA
Medium: in vitro
Concentration: 365 nM
Setting: natural RNA segment, single round, ends assumed
Relative to: no-protein control
Direction: higher = stronger binding
All sequences stand within: GGGAGUUCUACAGUCCGACGAUC … UGGAAUUCUCGGGUGCCAA
Construct (chain): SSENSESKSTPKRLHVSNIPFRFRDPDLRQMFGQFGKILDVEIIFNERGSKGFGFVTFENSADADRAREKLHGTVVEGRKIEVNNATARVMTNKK
Sequence	RBNS enrichment (R)
GCUAGGCUGAACUGUAUGUUACUGUUUUCAUGCUUAUACAUAUAUUUUCAAUCACAUACAAGUACAUAGAAUUUCACAUUUUAAUUUAGCAAAUUGAUUUACCUAGGAAA	0.489
AUCUUAACUCCACGCUUUACGAUAUUAUAAAAGUUGAAUGGUUCCUCUUGGUAAGGAUAUUUGCUUACAAGUGCUAGGAAAUAACUCACUGAUACCUGCGUUAACAUACU	1.07
UUUUUAAAAAGUGUUAAGAGUGUCUGUCUGUCUGUCUGUCUGUCUGUCUGUCUGUACGUUUAAUUGAUAGCACCUCUGCCGUGUGUCAUCAACUACUAGACAGCCAGGCU	0.456
AAACAGAAGCUUGUACGUAUUCAUUAGAAUGCACUAUCGGGUACUCUGAAGUCAUUAACAUUGAAAUCUGCACCAGGAGGCAACAGGGGAAAAAAAAGUUUGAUCUUCUU	0.342
AGGUCUGGGUUUCGUUUUUACCCAGACCCUGGCACUCCCUGUCCACUGUGUGUGUGAUCAUGCUGGGAGGGGUAACUGCUUGGAAUUAAAAGGUUGCACUGGGUCCCUAA	0.452
AAGUGGAUGAGUUAUAGAGGAGGCCCUCGAGGCUGACCCAAUACGGUUACUAAGGGAGACUACAGGGAUCUCACGACAAACAUUCUGAUACAAUACUCAACCUCGGUAUA	0.37
CCAUCUCAGUGUCAGACCAGCCUUCUCCUCAGCUGACCACCCUCCUCUGACCCACGCCCCCUCCUUGUCUGAAAGAAAGGAGCCUUGAAUGGUGGAGGGAGGCAGUGGGG	0.466
AUGGCCAAUUAACUGAGAAUGUAAGAAAAUUGAUGCUGUACAAGGCAAAUAAAGCUGUUUAUUAACCUGAUGUCUUGUGCCUUUGCAUUCUGUGUUGCGGGGGCGUGAAA	1.71
UCUCCUUCCCCGGCUCGCAGGAGAGCAGAGCAGAGAACUGUGGGGAACGCUGUGCUGUUUGUAUUUGUUCCCUUGGGUUUUUUUUUCCUGCCUAAUUUCUGUGAUUUCCA	0.343
CAUAGACCUUUGGGUCUGCCUGGACUGUAUGUGGAUGUGUGCGUGUGUUGUGACACGGGACAACACAUGCCUCUGCAAGUGUGUGUGCCGUGGAUAGCCCCUUGGCUGCU	2.51
GCUAUUGAGAGUUGCAGUGUUUUACUUUUUAAUACAGUGACUGCACUUGGGACAGACUAUUUGUAGUGUCUAUAGGACAUGAAGCGUGCAGCUUGGAGAGCAAAGGCACU	0.39
GUAGCACAUGGUUUAAAUAUGAAUGACUGAACUUGUGAUCUAGUCCUUGUCUGGUAAUUGUGGAUUAAUGUCAGCGUUAAUCAGCCCCUCAAAGGGAGAGAAAAGCUGGG	2.68

Block 3
Target: Histone acetyltransferase KAT6A, winged helix 2, GST fusion (KAT6A, Homo sapiens, UniProt Q92794, residues 85-181)
Method: protein binding microarray
Molecule type: double-stranded DNA, one strand shown
Medium: in vitro
Concentration: not given
Setting: 8-mer, flanks averaged, mean of 2 arrays, mostly near background
Relative to: not given
Direction: higher = stronger binding
Construct (chain): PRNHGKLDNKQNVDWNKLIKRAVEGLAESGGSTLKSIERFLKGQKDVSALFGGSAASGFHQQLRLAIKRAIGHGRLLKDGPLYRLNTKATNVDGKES
Sequence	E-score
CGGAGTTA	0.0186
GGCAGTGA	0.135
GCCACCTA	-0.144
CTGAGAAA	-0.0498
CTCGGGGA	0.181
GGTTAAAA	-0.051
TGATAGCA	0.133
CTGTTGCC	0.0274
TCAAGCAA	0.0784
ATCGAAGG	0.0974
ATGATCAT	0.0397
GATCCTGA	-0.0173
ATGCCGCC	0.126
GGCTAGAC	-0.12
AGGAAACA	0.0388
CGTATCCC	-0.071
GTCTCTAA	0.0577
CAATGTTC	-0.139
CGCGGTAA	0.159
GTGGGACA	0.118
AAAATGCA	0.0523
ACAATCGG	-0.0564

Block 4
Target: Ras GTPase-activating protein-binding protein 1, full length (G3BP1, Homo sapiens, UniProt Q13283)
Sequence of UniProt Q13283 (whole entry, looked up): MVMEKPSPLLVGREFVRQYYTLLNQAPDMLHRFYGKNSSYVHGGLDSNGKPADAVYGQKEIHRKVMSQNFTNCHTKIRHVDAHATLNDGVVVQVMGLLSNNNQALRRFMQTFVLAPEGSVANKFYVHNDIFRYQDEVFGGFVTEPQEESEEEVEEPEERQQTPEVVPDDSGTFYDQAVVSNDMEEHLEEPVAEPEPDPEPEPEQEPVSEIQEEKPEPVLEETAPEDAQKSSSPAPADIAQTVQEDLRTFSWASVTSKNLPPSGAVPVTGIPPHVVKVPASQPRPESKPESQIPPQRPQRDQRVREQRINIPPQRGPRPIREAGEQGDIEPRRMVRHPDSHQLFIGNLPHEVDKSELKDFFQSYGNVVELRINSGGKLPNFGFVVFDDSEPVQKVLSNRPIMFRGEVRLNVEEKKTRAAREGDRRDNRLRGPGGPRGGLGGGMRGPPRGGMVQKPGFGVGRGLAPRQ
Method: RNA Bind-n-Seq
Molecule type: RNA
Medium: in vitro
Concentration: 200 nM
Setting: whole 134-nt RNA, ends assumed
Together with: 150 mM LiCl
Relative to: input library
Direction: higher = stronger binding
All molecules: 7-deaza-guanosine replaces G
All sequences stand within: GGGAGUUCUACAGUCCGACGAUC … UGGAAUUCUCGGGUGUCAAGG
Sequence	log2 enrichment
CACAAACAACACGCACCCACACAGACACAGAGGGAAGGGGUUGGGAUGGGGACAGGGUGCACAGCAGGGCGGGGUAGGACCCCAGCCCCU	0.284
GCAGGAAGUAAAAACAAAUGGAAAAAAUUCGGAUAGUGGCAGGGGUGGGGGUUGCUAAGGAAAGGGUGGGAUGGGAGUGGGUAAAGAGUU	-0.382
GCAGGAAGUAAAAACUAAUGGAAAUGCUUCGGAUAGUGGCAGGGGUGGGGGUUGCUAAGGAAAGGGUGGGAUGGGAGUGGGUAAAGAGUU	-0.0513
GCAGGAAGUAAAAACAAAUGGAAAUGCUUGGGAUAGUGGCAGGGGUGGGGGUUGCUAAGGAAAGGGUGGGAUGGGAGUGGGUAAAGAGUU	0.241
UCAAGUCCUGUGCUACACAUCGUAUGUACCGAAUCGGAAAGGGAAAGGGGAAAGGAAAGUAUUAUGUUACGCCGUUCGGAUCUGCACUUC	-0.478
CACAGACAACAGGCACCCACACAGACACAGAGGGAAGGGGUUGGGAUGGGGACAGGGUGCACAGCAGGGCGGGGUAGGACCCCAGCCCCU	0.227
ACCAUGCAGGUGGGCAACUUUGGGAAGUGGGGCAAGGGGGGGAUAGGGAGGGGGGUAACACUUUGGGAACAGGUGGUCCCAGGUCGUUUC	0.277
AGUCCUGUGCUACACAUCGUAUGUACCGAAUCGGGUUUUUGGGAAAAAAAGGGAGGGAAAGUAUUAUGUUACGCCGUUCGGAUCUGCACU	-1.83
CACAGACAACACGCACCCACACAGACACAGAGGGGAGGGGUUGGGAUGGGGACAGGGUGCACAGCAGGGCGGGGUAGGACCCCAGCCCCU	-0.237
CAUCAAAAUAGCUACAAACCAUACUAAAUUAUUCCAUUUGCAACUUAUCCCCAACAGGUAUGUUCUAAAAAUAGUUUUUUUUUGUCAUUU	0.308
CUGUGCUACACAUCGUAUGUACCGAAUCGGGAAAAAAAGGAAAAAAAGGGAAAAAAAGGGGAAAGUAUUAUGUUACGCCGUUCGGAUCUG	0.0263

Some of these lines once more (block 4):
Sequence	log2 enrichment
GCAGGAAGUAAAAACUAAUGGAAAUGCUUCGGAUAGUGGCAGGGGUGGGGGUUGCUAAGGAAAGGGUGGGAUGGGAGUGGGUAAAGAGUU	-0.0513
GCAGGAAGUAAAAACAAAUGGAAAUGCUUGGGAUAGUGGCAGGGGUGGGGGUUGCUAAGGAAAGGGUGGGAUGGGAGUGGGUAAAGAGUU	0.241
UCAAGUCCUGUGCUACACAUCGUAUGUACCGAAUCGGAAAGGGAAAGGGGAAAGGAAAGUAUUAUGUUACGCCGUUCGGAUCUGCACUUC	-0.478
CACAGACAACAGGCACCCACACAGACACAGAGGGAAGGGGUUGGGAUGGGGACAGGGUGCACAGCAGGGCGGGGUAGGACCCCAGCCCCU	0.227
ACCAUGCAGGUGGGCAACUUUGGGAAGUGGGGCAAGGGGGGGAUAGGGAGGGGGGUAACACUUUGGGAACAGGUGGUCCCAGGUCGUUUC	0.277
AGUCCUGUGCUACACAUCGUAUGUACCGAAUCGGGUUUUUGGGAAAAAAAGGGAGGGAAAGUAUUAUGUUACGCCGUUCGGAUCUGCACU	-1.83
CACAGACAACACGCACCCACACAGACACAGAGGGGAGGGGUUGGGAUGGGGACAGGGUGCACAGCAGGGCGGGGUAGGACCCCAGCCCCU	-0.237
CAUCAAAAUAGCUACAAACCAUACUAAAUUAUUCCAUUUGCAACUUAUCCCCAACAGGUAUGUUCUAAAAAUAGUUUUUUUUUGUCAUUU	0.308
